Experimental data pooled from the literature.
Each line is one published result; not all experiments were run side by side. ± gives the spread as reported.
Cell line: Caco-2 monolayers

SMILES	test	test system	setting	how to read	endpoint	result
OCCc1ccccc1O	bidirectional transport, HPLC-UV		100 µg/mL, 2 h	relative to: BL→AP over AP→BL	efflux ratio	> 2
O=C(CS)NCCCCCC(=O)Nc1cccc2cccnc12			added: verapamil 50 µM	relative to: B-A over A-B	efflux ratio	1.28
OC[C@H]1O[C@@H](Oc2cc(O)cc(/C=C/c3ccc(O)cc3)c2)[C@H](O)[C@@H](O)[C@@H]1O	bidirectional transport, HPLC-UV		100 µg/mL, 2 h	relative to: BL→AP over AP→BL	efflux ratio	> 2
CC(=O)N[C@H]1[C@H]([C@H](O)[C@H](O)CO)OC(C(=O)O)=C[C@@H]1N=C(N)N			concentration not given, 180 min, basolateral to apical, added: calcium-free HBSS	relative to: HBSS with calcium	Papp fold increase	57.2 fold
O=c1cc(-c2ccccc2)oc2cc(O)c(O)c(O)c12			100 µg/mL, 2 h	relative to: Papp(BL-AP) over Papp(AP-BL)	efflux ratio	0.29
CCCCC(CC)COC(=O)c1ccc(O)cc1 (stereo not shown)		cell lysate	5 µM, 1 h, apical to basolateral	relative to: starting concentration	cellular accumulation	17%
COc1ccc(-c2coc3cc(O)ccc3c2=O)cc1	apical to basolateral transport		100 µg/mL, 2 h		amount transported	3.68 ± 0.08%
CC(C)c1nc(N(C)S(C)(=O)=O)nc(-c2ccc(F)cc2)c1/C=C/[C@@H](O)C[C@@H](O)CC(=O)O			5 µM, 2 h, pH apical 6.5, basolateral 7.4		Papp (A to B)	0.17 ×10⁻⁶ cm/s
O=S1(=O)OC(c2ccc(O)cc2)(c2ccc(O)cc2)c2ccccc21		apical mixed micelles	500 µM		paracellular flux	0.02 ± 0.005 %/h/cm²
O=c1c(-c2ccc(O)cc2)coc2c([C@@H]3O[C@H](CO)[C@@H](O)[C@H](O)[C@H]3O)c(O)ccc12	basolateral to apical transport		100 µg/mL, 2 h		amount transported	4.4 ± 1.4%

A few entries again:
SMILES	test	test system	setting	how to read	endpoint	result
CC(C)c1nc(N(C)S(C)(=O)=O)nc(-c2ccc(F)cc2)c1/C=C/[C@@H](O)C[C@@H](O)CC(=O)O			5 µM, 2 h, pH apical 6.5, basolateral 7.4		Papp (A to B)	0.17 ×10⁻⁶ cm/s
O=S1(=O)OC(c2ccc(O)cc2)(c2ccc(O)cc2)c2ccccc21		apical mixed micelles	500 µM		paracellular flux	0.02 ± 0.005 %/h/cm²
